Experimental data collected from several papers.
A part holds a random share of what one study measured. Changes are numbered by the printed parent chain.

Block 1
Target: RNA binding protein fox-1 homolog 2, RRM domain, GST-SBP tag (RBFOX2, Homo sapiens, UniProt O43251-10, residues 100-194)
Technique: RNA Bind-n-Seq
Form: RNA
Matrix: in vitro
Tested at: 365 nM
Notes: natural RNA segment, single round, ends assumed
Relative to: no-protein control
Direction: higher = stronger binding
Shared flanks, not repeated: GGGAGUUCUACAGUCCGACGAUC … UGGAAUUCUCGGGUGCCAA
Residues (chain): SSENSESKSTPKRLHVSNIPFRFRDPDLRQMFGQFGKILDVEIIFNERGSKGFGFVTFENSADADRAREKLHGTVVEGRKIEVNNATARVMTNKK
Strand | RBNS enrichment (R)
CCAGAAGGCUUUCAUUUGUACUCUGCUGGGAGUGACUGGGAAAAACUCCUUCCCUGCUGCUGAGUGGAGAGAGGCCUCAUCCGGCUUUGACCCACCAUCCGUUGCAGAAG | 0.221
GAGCUUUCUAUUUGGCACAUACCAGGGGUCCAGCUACUGGAAGGGCUCUACCCCAAACUCUGAGGACUACCUUACAGCUGACUUAAGUGUCUCACUAAAGCAUGAAAUGU | 0.769
CUUAUUAAAUAAAAAUAUAAAAAUAUGUACAUUACAUUUUGCUUAUUUUCAUAUAAAAGGUAAGAAAGAGUUUGCAAAGCAUUUGUGGCUUUUUGUAGUUUACUUAAGCC | 0.406
AAAGGGAAUUGCUGUCCUUGCCCUGUGGUAUGCUGCCACCUCUUUGGGAAGCAGGCCUUGCCCCUGUCCCACCACUCAUUCUCAGCUUUGAAUGGGAGGCCUUUCUAUAG | 0.417
UUCUCUCUCCUGUAAAUCCACGAGCACGGUCUGGAUCUGGAUGAAUAAAUAUAUUUCCUUAGGUGAUUUGGAUUUAUAACUUCUAUGGUCAUUCUUCCAAAGCUCUUUCC | 0.641
ACAUGUUCACACAUGCACACUCACGCUCACACAUGCUGUCACGCAUACACACACGCACAUACUCCUGCACAUGUUCCCAUGCAUGUGUGUGCACUCGGACCGAGCAUCUC | 1.56
CCUGUAUUCACACGGGUCACUCUGACUCAGACAGGUACUAUUCGUAGGCAGUGUAGACAGCAGGAGGAGCACCGGGCUUGGGCUUCCUCUGAGCCGUGAUGCCAAAGGUU | 0.483
CACCCUCCACACCCCAAAGAGAAAUCCCUUCAAAACAGUUUGGGGCCUGUAGCCAGGGUGGGAGGGGCUUGUGCCCCACAGCCUCACAACCCUUGGGGUCAGUGCACCAA | 0.354
AGAACAUUUUGGGAAACACUAUGUUAGAUAGUUCUUUAAGGAGACAAAACGGUAAUGAACAGAUAGCACUGGGGCAGAAUAUGCAUGCAUUUUGUAACGUCCAGUGUGGC | 31
CCCCUUCUACUACUUUCCCUCUCGCCCUGCCACCUAGUUCCACAUGGAACCAACAAGUUGAGUGCAUCCCUGUUGGGUGUUUUGUGUUGAGACUGGCUGAAAUGAGGAGA | 0.333
UAAUUGUCUUCAGAUAUAUCAUCAUAACUGAUGCAAGAUAAGGUGAAAUCUUGCAUCUUCAAGAAAAGAUUAAAAUAGUAAAAGUAUCUUAAAUUUCCUGAUAUUUAUGU | 0.583
GACCUGAAGCAUCCUUGACCUUCAUUUUGCUCAGGACUAUUCACUGUUUCCCUUCCUUGAGGAAGCCAUUGGAGAGAGCCACAGAACAGCAGUAUAUUGUAUUAAAGUUU | 0.308

Block 2
Target: NFE2, bZIP domain (human)
Technique: DHFR protein complementation
Matrix: yeast
Notes: single substitutions, most at no-binding floor
Relative to: wild-type JUN-FOS pair
Direction: higher = stronger binding
Starting sequence: JUN, bZIP domain (human); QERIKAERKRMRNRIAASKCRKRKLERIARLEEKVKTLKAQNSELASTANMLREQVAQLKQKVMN; partner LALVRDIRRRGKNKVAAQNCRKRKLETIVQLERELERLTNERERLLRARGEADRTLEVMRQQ
Variant | binding fitness
E32D | -1.35 natural log
E33F | -1.46 natural log
Q55T | -1.45 natural log
A49K | -1.59 natural log
S47F | -1.4 natural log
Q41K | -1.33 natural log
E32N | -1.41 natural log
A49W | -1.36 natural log
V35C | -1.47 natural log
N42Q | -1.5 natural log
L59C | -1.47 natural log
A40W | -1.45 natural log
T48P | -1.43 natural log
K39Y | -1.46 natural log
K39Q | -1.45 natural log
K34R | -1.43 natural log
M51W | -1.49 natural log
E54P | -1.46 natural log
L52H | -1.48 natural log
L31F | -1.52 natural log

Block 3
Target: Prothrombin, mature alpha-thrombin (F2, Homo sapiens, UniProt P00734)
Technique: aptamer microarray, sandwich
Form: DNA with 2'F-ANA
Matrix: in vitro
Tested at: 200 nM
Notes: whole 15-mer aptamer, many near background
Added: Cy3 exosite-II aptamer, 400 nM
Direction: higher = stronger binding
Strand: GGTTGGTGTGGTTGG
Modification | mean fluorescence intensity
2'F-ANA at 2 5 7 10 11 13 15 | 46.6 a.u.
2'F-ANA at 2 4 6 9 10 11 12 | 104 a.u.
2'F-ANA at 1 2 3 5 7 8 9 | 81.6 a.u.
2'F-ANA at 4 7 8 11 12 15 | 551 a.u.
2'F-ANA at 4 6 7 15 | 308 a.u.
2'F-ANA at 5 7 8 12 13 15 | 137 a.u.
2'F-ANA at 1 2 3 4 5 6 7 8 10 12 13 | 52.4 a.u.
2'F-ANA at 4 5 6 7 8 9 11 12 13 14 | 50.1 a.u.
2'F-ANA at 3 4 5 7 8 10 13 15 | 50.1 a.u.
2'F-ANA at 1 2 3 9 11 12 14 15 | 78.9 a.u.
2'F-ANA at 1 3 4 5 8 9 10 13 | 60.6 a.u.
2'F-ANA at 3 4 5 6 9 10 11 13 14 | 62.4 a.u.
2'F-ANA at 1 2 3 5 7 10 11 12 14 | 61.9 a.u.
2'F-ANA at 1 2 3 4 5 8 9 10 12 13 15 | 54.2 a.u.
2'F-ANA at 1 2 3 5 8 9 14 | 49.7 a.u.
2'F-ANA at 3 4 5 6 8 10 14 | 44.1 a.u.
2'F-ANA at 2 3 4 6 7 9 12 14 15 | 240 a.u.
2'F-ANA at 1 3 5 6 9 12 13 14 | 45.6 a.u.
2'F-ANA at 1 4 7 8 9 11 14 | 51 a.u.
2'F-ANA at 1 2 4 5 6 8 9 11 13 14 15 | 50.7 a.u.
2'F-ANA at 1 4 7 8 9 12 15 | 337 a.u.
2'F-ANA at 1 2 6 7 8 10 12 14 | 47.4 a.u.
2'F-ANA at 4 6 7 9 10 11 13 | 62.8 a.u.
2'F-ANA at 4 5 7 8 10 11 12 | 57.1 a.u.
2'F-ANA at 4 5 6 7 8 9 13 | 53.9 a.u.

Block 4
Target: CCNE1, cyclin fold, Cln2 fusion (human)
Technique: yeast growth competition, sequencing
Matrix: yeast
Notes: weak parent motif
Relative to: not given
Direction: higher = stronger binding
Starting sequence: ORC1 docking peptide (human); PRARKRLELGNLG
Variant | normalised enrichment score
A3Y | 1.11
N11C | 1.11
L9K | 0.166
R2L | 0.115
R6F | 0.927
A3E | 0.367
P1R | 0.806
R6A | -0.269
R4S | -0.188
L9S | 0.518
L9H | 0.368
R2Y | -0.158
K5L | 0.297
L7W | 0.487
R4Q | -0.0271
G13M | 1.03
A3K | -0.331
G13S | 0.742
P1Q | 0.908
R2H | 0.157
L12H | 0.555
A3D | -0.175
P1I | 0.142
K5I | 0.69
G10A | -0.0909

Block 5
Target: Ras GTPase-activating protein-binding protein 1, full length (G3BP1, Homo sapiens, UniProt Q13283)
Sequence of UniProt Q13283 (whole entry, looked up): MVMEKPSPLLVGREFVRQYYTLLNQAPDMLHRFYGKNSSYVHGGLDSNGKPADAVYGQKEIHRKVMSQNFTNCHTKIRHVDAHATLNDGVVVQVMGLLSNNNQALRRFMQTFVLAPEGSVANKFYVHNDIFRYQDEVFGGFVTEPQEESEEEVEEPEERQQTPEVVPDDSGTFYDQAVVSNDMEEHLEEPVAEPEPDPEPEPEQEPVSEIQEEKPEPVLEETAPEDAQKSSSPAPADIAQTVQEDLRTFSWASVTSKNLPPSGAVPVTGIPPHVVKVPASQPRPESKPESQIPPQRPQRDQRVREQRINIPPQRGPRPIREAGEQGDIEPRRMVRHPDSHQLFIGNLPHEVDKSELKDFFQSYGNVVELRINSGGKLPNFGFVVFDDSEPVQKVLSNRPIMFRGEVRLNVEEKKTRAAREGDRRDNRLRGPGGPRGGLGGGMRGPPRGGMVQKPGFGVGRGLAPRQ
Technique: RNA Bind-n-Seq
Form: RNA
Matrix: in vitro
Tested at: 200 nM
Notes: whole 134-nt RNA, ends assumed
Added: 150 mM KCl
Relative to: input library
Direction: higher = stronger binding
Shared flanks, not repeated: GGGAGUUCUACAGUCCGACGAUC … UGGAAUUCUCGGGUGUCAAGG
Strand | log2 enrichment
ACCAUGCAGGUGGGCAUCUUUGGGAAGUGGGGCAAGGGGGGGAUAGGGAGGGGGGUAACGCUUUGGGAACAGGUGGUCCCAGGUCGUUUC | 0.766
CCUCAAGUCCUGUGCUACACAUCGUAUGUACCGAAUCGGAGGGGAGGGAGGGAAAGUAUUAUGUUACGCCGUUCGGAUCUGCACUUCCAG | 1.46
UAACUUUAGAGGAGGAUCUGAUGGAUAUGGCAGUGGACGUGGAUUUGGGGAUGGCUAUAAUUGGUAUGGAGGAGGACCUGGAGGUGGCAA | 0.224
CCUGUGCUACACAUCGUAUGUACCGAAUCGGGGCCCCCCGGCCCCCCGGGGCCCCCCGGGAAAGUAUUAUGUUACGCCGUUCGGAUCUGC | -0.327
UUUCAGGGCGCCCUGCGUCCGGCAGAGGAGGCGAGCAUCCCGCUCAGGUGAUGAGGAACCCCUCGCGCACCCAGCGCAGAAGGCUGCUGC | -1.23
GAAAAUUUCUCAGUUCUUAAGAAUGCUUGCUGUGGGUAUAGUGCAGGUAUAUUGAAAGGAAUUUUUUUCUUGCAGCGGGAAAGAGACAUG | -1.22
AGUCCUGUGCUACACAUCGUAUGUACCGAAUCGGAAAAAGGGAAAAAGGGAAAAAGGAAAGUAUUAUGUUACGCCGUUCGGAUCUGCACU | -1.06
UUACUAGAAAAGGCAGAAGCCCGUGAACGUGAAAGAGAAAAAGAAGAGGCUCGGAAGAUGAAACGAAAAGAAUCUGCAUUUAAGAGUAUG | -1.43
UGGCCCUGGUGGCAUGCGGGGAGGAAGAGGUGGCCUCAUGGAUCGUGGUGGUCCAGGUGGAAUGUUCAGAGGUGGCCGUGGUGGAGACAG | 0.0227
ACCAUGCAGGUGGGCAUCUUUGGGAAGUGGGGCAAGGGGGGGAUAGGGAGGGGGGUAACACUUUGGGAACAGGUGGUCCCAGGUAAAUUC | 1.11
CUGUGCUACACAUCGUAUGUACCGAAUCGGGGCCCCCCCGGGGCCCCCCCGGGCCCCCCCGGAAAGUAUUAUGUUACGCCGUUCGGAUCU | -0.928
GCAGGAAGUAAAAACAAAUGGAAAUGCUUCGGAUAGUGGCAGGGGUGGGGGUUGCUAAGGAAAGGAUGGGAUGGGAGUGGGUAAAGAGUU | 0.984
AAGUCCUGUGCUACACAUCGUAUGUACCGAAUCGGCCCCGGCCCCGGGGCCCCGGGAAAGUAUUAUGUUACGCCGUUCGGAUCUGCACUU | -1.13
CACAGACAACACGCACCCACACAGACACAGAGGGAAGGGGUUGGGAUGGGAACAGGGUGCACAGCAGGGCGGGGUAGGACCCCAGCCCCU | 1.91

Repeated from above (block 5):
Strand | log2 enrichment
CCUGUGCUACACAUCGUAUGUACCGAAUCGGGGCCCCCCGGCCCCCCGGGGCCCCCCGGGAAAGUAUUAUGUUACGCCGUUCGGAUCUGC | -0.327
UUUCAGGGCGCCCUGCGUCCGGCAGAGGAGGCGAGCAUCCCGCUCAGGUGAUGAGGAACCCCUCGCGCACCCAGCGCAGAAGGCUGCUGC | -1.23
GAAAAUUUCUCAGUUCUUAAGAAUGCUUGCUGUGGGUAUAGUGCAGGUAUAUUGAAAGGAAUUUUUUUCUUGCAGCGGGAAAGAGACAUG | -1.22
AGUCCUGUGCUACACAUCGUAUGUACCGAAUCGGAAAAAGGGAAAAAGGGAAAAAGGAAAGUAUUAUGUUACGCCGUUCGGAUCUGCACU | -1.06
UUACUAGAAAAGGCAGAAGCCCGUGAACGUGAAAGAGAAAAAGAAGAGGCUCGGAAGAUGAAACGAAAAGAAUCUGCAUUUAAGAGUAUG | -1.43
UGGCCCUGGUGGCAUGCGGGGAGGAAGAGGUGGCCUCAUGGAUCGUGGUGGUCCAGGUGGAAUGUUCAGAGGUGGCCGUGGUGGAGACAG | 0.0227
ACCAUGCAGGUGGGCAUCUUUGGGAAGUGGGGCAAGGGGGGGAUAGGGAGGGGGGUAACACUUUGGGAACAGGUGGUCCCAGGUAAAUUC | 1.11
CUGUGCUACACAUCGUAUGUACCGAAUCGGGGCCCCCCCGGGGCCCCCCCGGGCCCCCCCGGAAAGUAUUAUGUUACGCCGUUCGGAUCU | -0.928
GCAGGAAGUAAAAACAAAUGGAAAUGCUUCGGAUAGUGGCAGGGGUGGGGGUUGCUAAGGAAAGGAUGGGAUGGGAGUGGGUAAAGAGUU | 0.984
